Measurements pooled from the literature.
Compare with care: the assays were run in different laboratories. Numbers after ± are the reported error.
OPRL1: Nociceptin receptor (OPRL1, Homo sapiens, UniProt P41146)

Amino acid sequences for entries named in this document (tags omitted). Chains listed by the source or under a name are the forms on record and can include a tag or linker. Residues count along the entry.
UniProt P41146, whole entry: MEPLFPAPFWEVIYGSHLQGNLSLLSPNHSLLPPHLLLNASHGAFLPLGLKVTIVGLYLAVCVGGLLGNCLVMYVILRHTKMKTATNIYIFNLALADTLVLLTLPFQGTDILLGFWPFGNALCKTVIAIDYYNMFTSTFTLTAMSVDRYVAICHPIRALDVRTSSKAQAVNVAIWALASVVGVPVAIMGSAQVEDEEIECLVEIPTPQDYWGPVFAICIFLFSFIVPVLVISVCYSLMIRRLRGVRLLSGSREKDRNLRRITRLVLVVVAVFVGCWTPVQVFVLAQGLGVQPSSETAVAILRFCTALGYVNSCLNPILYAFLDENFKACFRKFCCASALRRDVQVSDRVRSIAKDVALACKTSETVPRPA
UniProt P08510, 1-655 with tags or gaps DEL6-46: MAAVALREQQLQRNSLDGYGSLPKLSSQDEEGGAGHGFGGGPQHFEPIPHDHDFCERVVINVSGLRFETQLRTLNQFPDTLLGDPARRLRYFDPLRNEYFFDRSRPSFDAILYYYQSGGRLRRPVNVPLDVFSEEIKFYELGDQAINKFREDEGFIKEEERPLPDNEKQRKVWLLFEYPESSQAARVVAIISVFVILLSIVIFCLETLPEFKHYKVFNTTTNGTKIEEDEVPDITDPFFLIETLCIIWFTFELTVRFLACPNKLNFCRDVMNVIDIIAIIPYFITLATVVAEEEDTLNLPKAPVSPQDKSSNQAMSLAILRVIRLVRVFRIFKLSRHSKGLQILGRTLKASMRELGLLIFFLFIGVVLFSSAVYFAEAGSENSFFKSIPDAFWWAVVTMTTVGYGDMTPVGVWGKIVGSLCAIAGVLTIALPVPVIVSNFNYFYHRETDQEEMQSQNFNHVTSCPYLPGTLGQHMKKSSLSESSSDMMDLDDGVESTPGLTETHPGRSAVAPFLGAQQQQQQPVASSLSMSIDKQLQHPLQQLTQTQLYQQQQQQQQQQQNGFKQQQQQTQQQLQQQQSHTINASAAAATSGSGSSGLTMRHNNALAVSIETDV
UniProt Q13976, whole entry: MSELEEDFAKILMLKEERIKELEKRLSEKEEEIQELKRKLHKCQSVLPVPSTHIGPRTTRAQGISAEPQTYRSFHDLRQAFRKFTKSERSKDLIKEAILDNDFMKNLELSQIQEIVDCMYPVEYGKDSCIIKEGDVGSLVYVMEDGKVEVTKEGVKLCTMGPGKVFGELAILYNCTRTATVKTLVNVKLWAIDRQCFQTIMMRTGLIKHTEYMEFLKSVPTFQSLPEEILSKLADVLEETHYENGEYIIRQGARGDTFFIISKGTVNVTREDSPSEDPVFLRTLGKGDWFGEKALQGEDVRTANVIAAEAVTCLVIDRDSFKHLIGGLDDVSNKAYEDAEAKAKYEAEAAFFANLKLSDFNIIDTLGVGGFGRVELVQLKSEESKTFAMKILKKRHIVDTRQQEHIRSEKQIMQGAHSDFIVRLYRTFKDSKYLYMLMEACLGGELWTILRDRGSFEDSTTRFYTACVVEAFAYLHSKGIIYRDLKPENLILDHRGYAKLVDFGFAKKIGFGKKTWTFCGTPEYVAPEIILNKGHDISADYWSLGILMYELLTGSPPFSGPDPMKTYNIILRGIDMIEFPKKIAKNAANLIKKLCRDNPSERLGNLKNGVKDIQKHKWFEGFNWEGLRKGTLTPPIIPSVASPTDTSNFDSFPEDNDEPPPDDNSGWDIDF
UniProt Q9JKC1, 24-597 limits assumed: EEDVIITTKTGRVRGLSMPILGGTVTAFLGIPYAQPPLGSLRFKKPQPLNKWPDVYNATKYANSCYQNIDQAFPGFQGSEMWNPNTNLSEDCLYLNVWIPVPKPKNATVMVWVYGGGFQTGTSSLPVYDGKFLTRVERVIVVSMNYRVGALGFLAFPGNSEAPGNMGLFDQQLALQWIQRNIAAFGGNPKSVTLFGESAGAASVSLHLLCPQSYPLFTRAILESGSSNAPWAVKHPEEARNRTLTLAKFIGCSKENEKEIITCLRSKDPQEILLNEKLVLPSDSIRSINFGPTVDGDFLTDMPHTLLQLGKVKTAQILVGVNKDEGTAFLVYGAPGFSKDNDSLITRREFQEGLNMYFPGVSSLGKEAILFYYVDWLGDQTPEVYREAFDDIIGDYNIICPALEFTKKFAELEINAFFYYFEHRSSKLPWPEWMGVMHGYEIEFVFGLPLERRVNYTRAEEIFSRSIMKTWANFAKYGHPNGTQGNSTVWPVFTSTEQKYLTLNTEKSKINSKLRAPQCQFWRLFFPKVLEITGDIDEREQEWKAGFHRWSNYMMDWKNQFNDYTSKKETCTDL
UniProt P62873, whole entry partner: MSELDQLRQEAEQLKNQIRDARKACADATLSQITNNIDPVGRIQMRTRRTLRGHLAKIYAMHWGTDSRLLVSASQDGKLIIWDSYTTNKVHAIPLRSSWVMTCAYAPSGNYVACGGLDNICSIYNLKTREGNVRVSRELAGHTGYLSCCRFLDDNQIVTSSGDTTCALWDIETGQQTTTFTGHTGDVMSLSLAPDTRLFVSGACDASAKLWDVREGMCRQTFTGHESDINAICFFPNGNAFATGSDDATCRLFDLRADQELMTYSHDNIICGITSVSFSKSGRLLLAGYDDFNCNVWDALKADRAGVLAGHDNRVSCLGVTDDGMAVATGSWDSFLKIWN
UniProt P59768, 2-68 partner limits assumed: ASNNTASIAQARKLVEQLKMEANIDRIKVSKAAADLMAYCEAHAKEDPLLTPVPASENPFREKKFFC
UniProt P63096, 2-354 partner limits assumed: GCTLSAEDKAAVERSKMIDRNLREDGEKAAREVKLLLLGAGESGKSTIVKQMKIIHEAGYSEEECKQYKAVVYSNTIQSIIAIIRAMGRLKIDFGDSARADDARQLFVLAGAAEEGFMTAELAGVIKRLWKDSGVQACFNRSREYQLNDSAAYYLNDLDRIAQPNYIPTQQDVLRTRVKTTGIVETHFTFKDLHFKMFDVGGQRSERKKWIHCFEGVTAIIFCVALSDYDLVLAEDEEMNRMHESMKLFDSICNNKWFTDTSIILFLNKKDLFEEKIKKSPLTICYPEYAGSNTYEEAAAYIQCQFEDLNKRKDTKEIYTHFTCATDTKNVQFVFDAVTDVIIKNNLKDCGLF

Cc1ccccc1S(=O)(=O)Nc1cccc(C(=O)NC2CCN(c3ncnc4[nH]cnc34)CC2)c1
relative infection (SARS-CoV-2; Wuhan-Hu-1; 0.09145 µM; reference: untreated infected cells): 70.3%

O=C(NCc1ccc(F)cc1)C1C(=O)N(O)C(=O)c2cc(C(F)(F)F)ccc21 (centres unmarked)
remaining activity (Lymphocytic choriomeningitis mammarenavirus; minigenome reporter gene; 50 µM; reference: DMSO): 61%

CC[C@H](C)[C@@H]1NC(=O)[C@H](CCCNC(=N)N)NC(=O)[C@@H](N)CSSC[C@@H]2NC(=O)[C@@H]3CSSC[C@@H](C(=O)N[C@H](C(=O)O)C(C)C)NC(=O)[C@H](CCCCN)NC(=O)[C@H](CC(N)=O)NC(=O)[C@H](Cc4ccccc4)NC(=O)[C@H](CCCNC(=N)N)NC(=O)[C@H](CC(N)=O)NC(=O)[C@H](CSSC[C@H](NC(=O)[C@H](CCCCN)NC(=O)[C@H](CCC(N)=O)NC(=O)[C@H](CC(N)=O)NC(=O)[C@@H]4C[C@@H](O)CN4C1=O)C(=O)N[C@@H](Cc1ccccc1)C(=O)N[C@@H](CCC(N)=O)C(=O)N[C@@H](Cc1c[nH]cn1)C(=O)N[C@@H](CC(C)C)C(=O)N[C@@H](CC(=O)O)C(=O)N[C@@H](CC(=O)O)C(=O)N3)NC(=O)[C@H](CCCCN)NC(=O)[C@H](CCCNC(=N)N)NC(=O)[C@H](CO)NC2=O
koff (Sh (Drosophila melanogaster, UniProt P08510, del6-46); potassium current, outside-out patch clamp; 500 nM, pulse application, zero voltage, internal K 15, together with: 1 mM TEA): 12 ± 1 s⁻¹

CCOc1ccccc1-c1cc(C(=O)NC/C=C/S(C)(=O)=O)nn1COC
EC50 (Venezuelan equine encephalitis virus; viral replication, nanoluciferase reporter; TC83-nLuc-nsP3): > 10000 nM

O=C(NC1CCN(c2ncnc3[nH]cnc23)CC1)c1cccc(NS(=O)(=O)c2ccc(Cl)cc2)c1
relative infection (SARS-CoV-2; Wuhan-Hu-1; 0.823 µM; reference: untreated infected cells): 55.5%

CC[C@H](C)[C@H](NC(=O)[C@H](C)NC(=O)[C@H](CCC(=O)O)NC(=O)[C@H](CCC(=O)O)NC(=O)[C@H](CC(C)C)NC(=O)[C@H](CCCCN)NC(=O)[C@H](CCCCN)NC(=O)[C@H](CCSC)NC(=O)[C@H](CCC(=O)O)NC(=O)[C@H](Cc1ccc(O)cc1)NC(=O)[C@H](CCC(=O)O)NC(=O)[C@H](CC(C)C)NC(=O)[C@H](CC(=O)O)NC(=O)[C@H](CC(C)C)NC(=O)[C@H](Cc1ccccc1)NC(=O)[C@H](Cc1ccccc1)NC(=O)[C@@H](NC(=O)[C@H](CC(N)=O)NC(=O)[C@@H](NC(=O)[C@H](CCC(N)=O)NC(=O)[C@H](CC(=O)O)NC(=O)[C@H](CC(C)C)NC(=O)[C@@H](N)CO)[C@@H](C)CC)C(C)C)C(=O)N[C@@H](CCCCN)C(=O)N[C@@H](CCCCN)C(=O)N[C@@H](CC(C)C)C(=O)N[C@@H](CCC(=O)O)C(=O)N[C@@H](CCC(=O)O)C(=O)N[C@@H](CO)C(=O)N[C@@H](Cc1ccc(O)cc1)C(=O)N[C@H](C(=O)N[C@@H](CC(=O)O)C(=O)N[C@@H](CC(C)C)C(=O)N[C@@H](CCCCN)C(=O)N[C@@H](CCC(=O)O)C(=O)N[C@@H](CC(C)C)C(=O)O)[C@@H](C)CC
IC50 (SARS-CoV-2 XBB.1.5 pseudovirus; pseudovirus infection, inhibitor, luciferase; Caco-2; 24 h): 103 nM

CS(=O)(=O)Cc1onc(-c2cccc(Cl)c2)c1-c1ccnc(N[C@@H]2CCN(C(=O)c3nccs3)C2)n1
inhibition (PRKG1 (Homo sapiens, UniProt Q13976); kinase activity, inhibitor, IMAP; 10 µM, together with: FAM-IP3R peptide): 7.4 ± 0.6%

CCOP(=O)(OCC)ON1C(=O)c2cccc3cccc(c23)C1=O
IC50 (Bche (Rattus norvegicus, UniProt Q9JKC1); inhibitor; rat, postnatal day 12, rat serum): 7 nM

CC(C)N1CN(C2c3ccccc3CCc3ccccc32)n2cc(C(=O)O)c(=O)c(O)c2C1=O
selectivity index (Junin virus; HEK-293T; reference: CC50 over EC50): ≥ 1000

COc1ccc(S(=O)(=O)Nc2cccc(C(=O)NC3CCN(c4ncnc5[nH]cnc45)CC3)c2)cc1
relative infection (SARS-CoV-2; Wuhan-Hu-1; 0.2743 µM; reference: untreated infected cells): 59.2%

CC[C@H](C)[C@H](NC(=O)[C@H](C)NC(=O)[C@H](CCC(=O)O)NC(=O)[C@H](CCC(=O)O)NC(=O)[C@H](CC(C)C)NC(=O)[C@H](CCCCN)NC(=O)[C@H](CCCCN)NC(=O)[C@H](CCSC)NC(=O)[C@H](CCC(=O)O)NC(=O)[C@H](Cc1ccc(O)cc1)NC(=O)[C@H](CCC(=O)O)NC(=O)[C@H](CC(C)C)NC(=O)[C@H](CC(=O)O)NC(=O)[C@H](CC(C)C)NC(=O)[C@H](Cc1ccccc1)NC(=O)[C@H](Cc1ccc(O)cc1)NC(=O)[C@@H](NC(=O)[C@H](CC(N)=O)NC(=O)[C@@H](NC(=O)[C@H](CCC(N)=O)NC(=O)[C@H](CC(=O)O)NC(=O)[C@H](CC(C)C)NC(=O)[C@@H](N)CO)[C@@H](C)CC)C(C)C)C(=O)N[C@@H](CCCCN)C(=O)N[C@@H](CCCCN)C(=O)N[C@@H](CC(C)C)C(=O)N[C@@H](CCC(=O)O)C(=O)N[C@@H](CCC(=O)O)C(=O)N[C@@H](C)C(=O)N[C@@H](Cc1ccc(O)cc1)C(=O)N[C@H](C(=O)N[C@@H](CC(=O)O)C(=O)N[C@@H](CC(C)C)C(=O)N[C@@H](CCCCN)C(=O)N[C@@H](CCC(=O)O)C(=O)N[C@@H](CC(C)C)C(=O)O)[C@@H](C)CC
IC50 (SARS-CoV-2 XBB.1.5 pseudovirus; pseudovirus infection, inhibitor, luciferase; Caco-2; 24 h, dual mutations): 49.6 nM

O=C1Cc2ccccc2N1C1CCN([C@@H]2CC[C@H]3CCCc4cccc2c43)CC1
intrinsic activity (OPRL1; calcium mobilization; CHO with Gαqi5; concentration not given, unit not given; reference: compound over N/OFQ Emax): 1.01

CC[C@H](C)[C@H](NC(=O)[C@H](C)NC(=O)[C@H](CCC(=O)O)NC(=O)[C@H](CCC(=O)O)NC(=O)[C@H](CC(C)C)NC(=O)[C@H](CCCCN)NC(=O)[C@H](CCCCN)NC(=O)[C@H](CCSC)NC(=O)[C@H](CCC(=O)O)NC(=O)[C@H](Cc1ccc(O)cc1)NC(=O)[C@H](CCC(=O)O)NC(=O)[C@H](CC(C)C)NC(=O)[C@H](CC(=O)O)NC(=O)[C@H](CC(C)C)NC(=O)[C@H](Cc1ccccc1)NC(=O)[C@@H](NC(=O)[C@@H](NC(=O)[C@H](CC(N)=O)NC(=O)[C@@H](NC(=O)[C@H](CCC(N)=O)NC(=O)[C@H](CC(=O)O)NC(=O)[C@H](CC(C)C)NC(=O)[C@@H](N)CO)[C@@H](C)CC)C(C)C)[C@@H](C)O)C(=O)N[C@@H](CCCCN)C(=O)N[C@@H](CCCCN)C(=O)N[C@@H](CC(C)C)C(=O)N[C@@H](CCC(=O)O)C(=O)N[C@@H](CCC(=O)O)C(=O)N[C@@H](CO)C(=O)N[C@@H](Cc1ccc(O)cc1)C(=O)N[C@H](C(=O)N[C@@H](CC(=O)O)C(=O)N[C@@H](CC(C)C)C(=O)N[C@@H](CCCCN)C(=O)N[C@@H](CCC(=O)O)C(=O)N[C@@H](CC(C)C)C(=O)O)[C@@H](C)CC
IC50 (SARS-CoV-2 Delta pseudovirus; pseudovirus infection, inhibitor, luciferase; Caco-2; 24 h, dual mutations): 1180 nM

O=C(Nc1ccc(F)cc1)C1C(=O)N(O)C(=O)c2cc([N+](=O)[O-])ccc21 (centres unmarked)
remaining activity (Lymphocytic choriomeningitis mammarenavirus; minigenome reporter gene; 100 µM; reference: DMSO): 63%

CC(C)[C@H]1CC[C@@H](N2CCC3(CC2)C(=O)NCN3c2ccccc2)CC1
potency ratio (OPRL1; G protein interaction, BRET; HEK293 membranes; reference: compound EC50 over N/OFQ EC50): 28

O=C(Nc1ccc2c(c1)C(=O)N(O)C(=O)C2C(=O)NCc1ccc(F)cc1)c1ccccc1 (centres unmarked)
remaining activity (Lymphocytic choriomeningitis mammarenavirus; minigenome reporter gene; 50 µM; reference: DMSO): 67.2%

O=C(NC1CCN(c2ncnc3[nH]cnc23)CC1)c1cccc(S(=O)(=O)Nc2ccc(Cl)cc2)c1
relative infection (SARS-CoV-2; Wuhan-Hu-1; 0.01016 µM; reference: untreated infected cells): 89.4%

Excerpt of the above:
CC[C@H](C)[C@H](NC(=O)[C@H](C)NC(=O)[C@H](CCC(=O)O)NC(=O)[C@H](CCC(=O)O)NC(=O)[C@H](CC(C)C)NC(=O)[C@H](CCCCN)NC(=O)[C@H](CCCCN)NC(=O)[C@H](CCSC)NC(=O)[C@H](CCC(=O)O)NC(=O)[C@H](Cc1ccc(O)cc1)NC(=O)[C@H](CCC(=O)O)NC(=O)[C@H](CC(C)C)NC(=O)[C@H](CC(=O)O)NC(=O)[C@H](CC(C)C)NC(=O)[C@H](Cc1ccccc1)NC(=O)[C@H](Cc1ccccc1)NC(=O)[C@@H](NC(=O)[C@H](CC(N)=O)NC(=O)[C@@H](NC(=O)[C@H](CCC(N)=O)NC(=O)[C@H](CC(=O)O)NC(=O)[C@H](CC(C)C)NC(=O)[C@@H](N)CO)[C@@H](C)CC)C(C)C)C(=O)N[C@@H](CCCCN)C(=O)N[C@@H](CCCCN)C(=O)N[C@@H](CC(C)C)C(=O)N[C@@H](CCC(=O)O)C(=O)N[C@@H](CCC(=O)O)C(=O)N[C@@H](CO)C(=O)N[C@@H](Cc1ccc(O)cc1)C(=O)N[C@H](C(=O)N[C@@H](CC(=O)O)C(=O)N[C@@H](CC(C)C)C(=O)N[C@@H](CCCCN)C(=O)N[C@@H](CCC(=O)O)C(=O)N[C@@H](CC(C)C)C(=O)O)[C@@H](C)CC
IC50 (SARS-CoV-2 XBB.1.5 pseudovirus; pseudovirus infection, inhibitor, luciferase; Caco-2; 24 h): 103 nM
